Measured values from different studies.
Compare with care: the assays were run in different laboratories.

For `CC(C)OC(=O)[C@]12CS[C@H](c3ccccc3)N1C(=O)/C(=C(O)/C=C/c1ccccc1)C2=O`, the MIC was 7.81 µg/mL (Streptomyces; bacterial growth, broth dilution; Mueller-Hinton broth; 24 h, 35 °C).
`CC1C=CC=CC(C)C2C=CC3CC(C)(O)C(Cl)C(C)C3C2C(=O)C(Cl)(Cl)C(=O)C(C)C(=O)O1` (stereo not shown) has an MIC of 0.05 µg/mL (Staphylococcus aureus; MRSA clinical isolate; resistant OXA/CIP/CLI/ERY).
`Cc1c(CN(C)C(=O)/C=C/c2cnc3c(c2)CC(N)C(=O)N3)oc2ccccc12` (stereo not shown) has an MIC of 8 µg/mL (Acinetobacter baumannii; broth microdilution; AR-0311).
`COC(=O)[C@]12CS[C@H](c3ccccc3)N1C(=O)/C(=C(\O)C1CCCCC1)C2=O` gave an MIC of 7.81 µg/mL (Streptomyces; bacterial growth, broth dilution; Mueller-Hinton broth; 24 h, 35 °C).
`N=C(N)NCCC[C@@H]1NC(=O)[C@H](CCCNC(=N)N)NC(=O)[C@@H](CCCNC(=N)N)NC(=O)[C@H](C(c2ccccc2)c2ccccc2)NC(=O)[C@H](C(c2ccccc2)c2ccccc2)NC(=O)[C@H](C(c2ccccc2)c2ccccc2)NC(=O)[C@H](CCCNC(=N)N)NC1=O` has an MIC of 16 µg/mL (Candida albicans; SC5314).
The MIC of `CC(C)OC(=O)C12CSC(c3ccccc3)N1C(=O)C(=C(O)NC13CC4CC(CC(C4)C1)C3)C2=O` (stereo not shown) is reported as 1.95 µg/mL (Streptomyces; bacterial growth, broth dilution; Mueller-Hinton broth; 24 h, 35 °C).
`CC1(C)[C@H](NC(=O)/C(=N\OCc2c(Cl)cccc2Cl)c2csc(N)n2)C(=O)N1OS(=O)(=O)O` has an MIC of 1 µg/mL (Citrobacter freundii; agar dilution; ATCC 43864, susceptible).
With `CC(C)OC(=O)[C@]12CS[C@H](c3ccccc3)N1C(=O)/C(=C(\O)C1CCCCC1)C2=O` the MIC was 7.81 µg/mL (Streptomyces; bacterial growth, broth dilution; Mueller-Hinton broth; 24 h, 35 °C).
`CC(C)(O/N=C(\C(=O)N[C@@H]1C(=O)N(OS(=O)(=O)O)C1(C)C)c1nsc(N)n1)C(=O)O` has an MIC of 0.5 µg/mL (Providencia rettgeri; agar dilution; ATCC 31052, susceptible).
The MIC of `N=C(N)NCCC[C@@H]1NC(=O)[C@H](CCCNC(=N)N)NC(=O)[C@@H](C(c2ccccc2)c2ccccc2)NC(=O)[C@H](Cc2c[nH]c3ccccc23)NC(=O)[C@@H](C(c2ccccc2)c2ccccc2)NC(=O)[C@@H](CCCNC(=N)N)NC(=O)[C@@H](CCCNC(=N)N)NC1=O` is reported as 8 µg/mL (Candida albicans; fungal growth).
`C#CCNC(=O)C(C)(C)O/N=C(\C(=O)N[C@@H]1C(=O)N(S(=O)(=O)O)[C@H]1C)c1csc(N)n1` gave an MIC of 4 µg/mL (Citrobacter freundii; agar dilution; ATCC 43864 susceptible).
For `CCOc1c(NC(=O)c2ccc(NC(=O)c3ccc(NC(=O)[C@H](Cc4c[nH]nn4)NC(=O)c4ccc(NC(=O)/C(C)=C/c5ccc(O)cc5)cc4)cc3)c(OCC)c2O)ccc(C(=O)O)c1O`, the MIC was 0.5 µg/mL (Mycolicibacterium phlei; DSM 750).
For `CC1(C)C(NC(=O)C(=NOC2(C(=O)O)CC2)c2csc(N)n2)C(=O)N1OS(=O)(=O)O` (stereo not shown), the MIC was 0.125 µg/mL (Citrobacter freundii; agar dilution; ATCC 43864, susceptible).
`CN[C@H](CC(C)C)C(=O)N[C@H]1C(=O)N[C@@H](CC(N)=O)C(=O)N[C@H]2C(=O)N[C@H]3C(=O)N[C@H](C(=O)N[C@H](C(=O)O)c4cc(O)cc(O)c4-c4cc3ccc4O)[C@H](O)c3ccc(c(Cl)c3)Oc3cc2cc(c3O[C@@H]2O[C@H](CO)[C@@H](O)[C@H](O)[C@H]2O[C@H]2C[C@](C)(N)[C@H](O)[C@H](C)O2)Oc2ccc(cc2Cl)[C@H]1O` gave an MIC of 64 µM (Salmonella enterica serovar Typhimurium; 14028, Mueller-Hinton broth; 18 to 20 h, 37 °C).
`CC1(C)[C@H](NC(=O)/C(=N\OCCN)c2csc(N)n2)C(=O)N1OS(=O)(=O)O` gave an MIC of 1 µg/mL (Citrobacter freundii; agar dilution; ATCC 43864, susceptible).
`COc1nc(C(=O)Nc2ccc(C(=O)O)c(O)c2OC)ccc1NC(=O)c1ccc(NC(=O)[C@H](Cc2c[nH]nn2)NC(=O)c2ccc(NC(=O)/C(C)=C/c3ccc(O)cc3)cc2)cc1` has an MIC of 1 µg/mL (Mycolicibacterium phlei; DSM 750).

Excerpt of the above:
With `CC(C)OC(=O)[C@]12CS[C@H](c3ccccc3)N1C(=O)/C(=C(\O)C1CCCCC1)C2=O` the MIC was 7.81 µg/mL (Streptomyces; bacterial growth, broth dilution; Mueller-Hinton broth; 24 h, 35 °C).
`CC1(C)[C@H](NC(=O)/C(=N\OCc2c(Cl)cccc2Cl)c2csc(N)n2)C(=O)N1OS(=O)(=O)O` has an MIC of 1 µg/mL (Citrobacter freundii; agar dilution; ATCC 43864, susceptible).
